Measurements collected from several papers.
Every numbered part comes from another study and shows a few of its results, in no order. Positions count from the first letter of the parent shown.

Set 1
Target: CEBPD, bZIP domain (human)
Technique: DHFR protein complementation
Medium: yeast
Notes: single substitutions, most at no-binding floor
Baseline: wild-type JUN-FOS pair
Reading: higher = stronger binding
Quantity: binding fitness
Starting sequence: JUN, bZIP domain (human); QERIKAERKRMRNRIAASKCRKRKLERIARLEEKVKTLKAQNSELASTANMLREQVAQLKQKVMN; partner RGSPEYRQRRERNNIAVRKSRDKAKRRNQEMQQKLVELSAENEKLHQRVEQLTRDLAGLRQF
R53V: -1.32 natural log
A46D: -1.45 natural log
T48V: -1.43 natural log
R53P: -1.41 natural log
S47P: -1.44 natural log
L45C: -1.43 natural log
I28E: -1.22 natural log
N42F: -1.43 natural log
E33C: -1.49 natural log
V56E: -1.44 natural log
T37P: -1.49 natural log
K34H: -1.42 natural log
Q41E: -1.34 natural log
A40P: -1.49 natural log
E54L: -1.37 natural log
L59R: -1.46 natural log
T48G: -1.51 natural log
L38E: -1.47 natural log
V56Y: -1.48 natural log

Set 2
Target: Interferon regulatory factor 5, full length, phosphomimetic (IRF5, Homo sapiens, UniProt Q13568-2, residues 1-514, K96S/S451D/S453D/S456D/S462D)
Technique: protein-binding microarray
Form: double-stranded DNA, one strand shown
Medium: in vitro
Concentration: 250 nM
Notes: 60-bp whole probe
Added: salmon DNA 0.4 mg/ml
Baseline: random background probes
Reading: higher = stronger binding
Quantity: log fluorescence
Constant ends, left off below: GCCTAGCAC … GTCTTGATTCGCTTGACGCTGCTG
CCAGACTTGATTTTGGTCTTGTGCTAG: 0.272 z-score
GACCGACTGGGTCTCGGGACGTGCTAG: -0.567 z-score
GACGATCTCAGTCTCGAGAGGTGCTAG: -0.0739 z-score
GTGACTCAGCACTTTGGCATGGTGCTA: -0.696 z-score
TCATTTTTCTACTTCTCACTGTGCTAG: 1.54 z-score
GACGATCTCAGACTGGAAACGTGCTAG: -0.342 z-score
TCATGTTTCCTCTTTCAACTGTGCTAG: 1.94 z-score
TTAGGAGTGGGTTTCGGTTAGTGCTAG: 7.99 z-score
TTAGATTTCGGGACTAGATTAGTGCTA: 2.86 z-score
GGCGGTATCGGGACTGGGGACGTGCTA: 1.12 z-score
GACGGCTTCGGTATCGGGACGTGCTAG: 1.21 z-score
GCCGGTCTCGGTTTCGGGACGTGCTAG: 3.9 z-score
GGTGATTTCAGTTTTCTTTTGTGCTAG: 2.65 z-score
TTAGAAGTGAGTCTCGATTAGTGCTAG: 0.672 z-score
GTGAAATAAGGGAGGCCTAGGTGCTAG: -0.117 z-score
TTAGGACTGAGTCTCGGTTAGTGCTAG: 0.613 z-score
TCATGTTTGTCACTCTCAGAGTGCTAG: 0.387 z-score

Set 3
Target: ABI1, truncated, D143A, DHFR fusion (Arabidopsis thaliana, UniProt P49597)
Technique: DHFR PCA, dose-response
Medium: yeast
Notes: Hill fit, mean, not affinity
Added: (+)-ABA, dose series
Reading: lower = more sensitive
Quantity: ABA EC50
Starting sequence: PYL1, truncated, DHFR fusion (Arabidopsis thaliana, UniProt Q8VZS8); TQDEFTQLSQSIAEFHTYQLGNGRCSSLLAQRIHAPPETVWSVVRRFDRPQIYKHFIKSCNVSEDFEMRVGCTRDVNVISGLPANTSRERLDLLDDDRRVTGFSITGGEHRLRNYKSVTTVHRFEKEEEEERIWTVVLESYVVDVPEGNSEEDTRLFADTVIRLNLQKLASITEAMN
M176T: 3.59 µM
I57A: 73.5 µM
R32H: 2.49 µM
E131D: 1.14 µM
R98S: 20.6 µM
P37R: 157 µM
G21P: 2.7 µM
K58R: 1.87 µM
E129N: 2.07 µM
A170V: 62.1 µM
G81K: 159 µM
Y18L: 20.5 µM
P146T: 118 µM
D144V: 116 µM
Y18S: 14.7 µM
I79C: 4.91 µM
T6F: 12.8 µM
D75V: 0.39 µM
V44A: 47.3 µM
E4P: 3.52 µM
A158N: 70.4 µM
V143F: 839 µM
T160N: 10.8 µM

Set 4
Target: RNA binding protein fox-1 homolog 2, RRM domain, GST-SBP tag (RBFOX2, Homo sapiens, UniProt O43251-10, residues 100-194)
Technique: RNA Bind-n-Seq
Form: RNA
Medium: in vitro
Concentration: 365 nM
Notes: natural RNA segment, single round, ends assumed
Baseline: no-protein control
Reading: higher = stronger binding
Quantity: RBNS enrichment (R)
Constant ends, left off below: GGGAGUUCUACAGUCCGACGAUC … UGGAAUUCUCGGGUGCCAA
GUGUAUCUCAAGGGACUUAAUUCAGCUGUCUGUAGUGAAUAAAAGUGGGAAAUUUUCAAAAGUUUCUCCUGCUGGAAAUAAGGUAUAAUUUGUAUUUUGCAGACAAUUCA: 0.507
UUUCUAACUUUUAUAUCUUAAAAGCAGAGCACCUGUUUAAGCAUUGUACCCCUAUUGUUAAAGAUUUGUGUCCUCUCAUUCCCUCUCUUCCUCUUGUAAGUGCCCUUCUA: 1.52
AUCUCCCAUUUUAACCACUUUUAGAUACUGCUCCUUAUUUAAGUUACCCUUUUAGCAGAUAAUUCGGAGCAUUAUUUAUUUAAAGAAUUUAUAAUUCUACAGUACCUAUU: 0.929
GGUAUGAAUGCUCAGAGCUCACCCGAGCAUGCUGGUAGAGUCAGGGUGUGUAUUUAGUCACCAACCGGCCUCCAUUGUGUGUAUCAGCAAACACCAGACUCGCUCAGAGG: 0.827
UCAAGGACAAAUCUGUAAGUUUCUUAUUUCUGUAGUGCAAGUAAAAUUUCACUUUUUGAAACUAUAGAGAGAUCCCUUUCUGAUUAGCCUACAGAACUUAAAGUGAGGGA: 0.427
AUGUAUGUGUAAAGUGUGAAUAAAUCUCAUAUCAAAUGUCAAACUUUUACAUGUGAAUGAUUUUCUCAAAGAACAUAGAAAAGUCAAUAAAAUCCUCUUAAUUUCCACAU: 0.446
UCUCAUGCUCUCCGCCCUGUUCUAUCUGGCACUUCCCAGGCACAGAGGCCCCUUCAGGUUCCUGGGUGCUCUUCAAUGGCCAAAACUCGAUUUCAUGUCUGGGAGCCUGG: 0.413
AGAAAUGUGGGUUGGUUUGGGAAUAGAAACUUGUUCCUGCAUGAGAUGGCUUUGGGUGUCUGGUACCACUCCUUCCCUUCCCCCUACCUGGCCGAUUGGUGCUCCUUCUA: 2.33

Further values, each from its own experiment
Technique: cross-linking MS
Medium: cell fractions
Added: DSSO
NEMF (Homo sapiens, UniProt O60524)  cross-linked residues (KPNB1 (Homo sapiens, UniProt Q14974)): K347 to K23
RFC1 (Homo sapiens, UniProt P35251)  cross-linked residues (RFC3 (Homo sapiens, UniProt P40938)): S1083 to K66
CANX (Homo sapiens, UniProt P27824)  cross-linked residues (FSIP2 (Homo sapiens, UniProt Q5CZC0)): K170 to K690

A few entries again (set 1):
T48V: -1.43 natural log
R53P: -1.41 natural log
S47P: -1.44 natural log
L45C: -1.43 natural log
I28E: -1.22 natural log
N42F: -1.43 natural log
E33C: -1.49 natural log
V56E: -1.44 natural log
T37P: -1.49 natural log
K34H: -1.42 natural log
Q41E: -1.34 natural log
